Measured values collected from several papers.
A part holds a random share of what one study measured. Changes are numbered by the printed parent chain.

Block 1 — target: CCNA1, cyclin fold, Cln2 fusion (human); technique: yeast growth competition, sequencing; sample: yeast; notes: weak parent motif; baseline: not given; reading: higher = stronger binding; measurement: normalised enrichment score
Starting sequence: ORC1 docking peptide (human); PRARKRLELGNLG
MRARKRLELGNLG [P1M]: 0.0442
PRARKQLELGNLG [R6Q]: 0.167
PRARKRWELGNLG [L7W]: 0.373
PRARKRLELGNVG [L12V]: 0.732
YRARKRLELGNLG [P1Y]: 0.526
PRARKRLYLGNLG [E8Y]: 0.288
PNARKRLELGNLG [R2N]: 0.336
PRARKRLEVGNLG [L9V]: 0.552
GRARKRLELGNLG [P1G]: 0.191
PRARKRLELFNLG [G10F]: 0.372
PRATKRLELGNLG [R4T]: 0.438
PRARKRLEIGNLG [L9I]: 0.448
PRAWKRLELGNLG [R4W]: 0.112

Block 2 — technique: universal PBM; form: double-stranded DNA, one strand shown; sample: in vitro; concentration: not given; reading: higher = stronger binding; measurement: E-score
Target: Sal-like protein 4, full length isoform B (SALL4, Homo sapiens, UniProt Q9UJQ4-2, residues 1-616)
Notes: 8-mer, flanks averaged, mean of replicates
Residues (chain): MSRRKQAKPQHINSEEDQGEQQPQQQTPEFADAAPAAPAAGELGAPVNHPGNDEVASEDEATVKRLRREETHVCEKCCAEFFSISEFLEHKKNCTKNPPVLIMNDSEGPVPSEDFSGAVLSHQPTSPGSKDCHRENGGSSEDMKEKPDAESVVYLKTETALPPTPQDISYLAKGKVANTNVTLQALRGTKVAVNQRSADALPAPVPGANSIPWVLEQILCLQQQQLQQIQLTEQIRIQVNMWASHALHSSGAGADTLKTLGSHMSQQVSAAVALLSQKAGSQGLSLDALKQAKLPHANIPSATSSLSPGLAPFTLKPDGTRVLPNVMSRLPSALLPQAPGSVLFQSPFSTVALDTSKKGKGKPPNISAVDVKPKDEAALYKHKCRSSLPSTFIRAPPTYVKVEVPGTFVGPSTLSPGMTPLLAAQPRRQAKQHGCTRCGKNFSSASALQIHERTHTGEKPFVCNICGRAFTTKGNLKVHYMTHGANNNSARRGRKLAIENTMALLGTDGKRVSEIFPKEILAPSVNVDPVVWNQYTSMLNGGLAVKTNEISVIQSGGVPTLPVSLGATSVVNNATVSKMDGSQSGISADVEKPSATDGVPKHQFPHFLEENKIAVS
GACTAGCC: -0.218
AGTTTGGA: 0.0997
AGCAGAGC: -0.154
GCGATACA: 0.0801
TCCTCAGA: 0.00172
CTTACTGC: 0.0345
TGCCACAA: 0.137
AAAAGGAT: 0.184
GCCGGACA: -0.246
CAACATGA: 0.146
CCATTCCA: -0.112
AGGCCTTA: -0.114

Block 3 — technique: RNAcompete; form: RNA; sample: in vitro; concentration: 20 nM; notes: 7-mer, probes averaged, single round; baseline: mean of 7-mers; reading: higher = stronger binding; measurement: 7-mer Z-score
Target: PABPC1L2, full length, GST fusion (mouse, UniProt A0ABA7IW68)
Target sequence (chain): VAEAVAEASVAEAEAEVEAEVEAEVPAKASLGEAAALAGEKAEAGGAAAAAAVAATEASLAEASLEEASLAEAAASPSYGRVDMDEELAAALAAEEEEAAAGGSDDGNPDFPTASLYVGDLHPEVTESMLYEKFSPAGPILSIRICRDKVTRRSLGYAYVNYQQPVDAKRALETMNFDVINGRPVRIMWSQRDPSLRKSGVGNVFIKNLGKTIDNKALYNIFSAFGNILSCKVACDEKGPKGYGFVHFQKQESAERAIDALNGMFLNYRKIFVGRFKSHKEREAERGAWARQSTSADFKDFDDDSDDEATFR
GCAUAGA: -0.00108
UCAAUUG: -0.28
UGUUUUC: -0.489
GCCCUGU: -0.331
CCGCGCA: -0.195
AAACCCG: 0.329
CAUACAU: -0.0518
AGCGAGC: 0.0334
GAGAGUG: -0.0047
CUCGAUA: -0.128
GCCGACA: -0.0627
AGUGUGA: 0.0732
AAUAUGC: 0.454
GUCCGUG: -0.166

Further values, each from its own experiment
PhoQ, residues 284 288 289 292 302 303 SASVAL — fold induction (PhoP, residues 12 14 15 18 19 NQGLL (Escherichia coli, UniProt P23836); Sort-seq, item: YFP reporter; E. coli; PhoQ-PhoP variant library, together with: 10 µM Mg2+; baseline: high Mg2+ state, higher = stronger signaling): 3.71

Excerpt of the above (block 3):
AAACCCG: 0.329
CAUACAU: -0.0518
AGCGAGC: 0.0334
GAGAGUG: -0.0047
